Experimental data of several laboratories.
Compare with care: the assays were run in different laboratories.
Target: Phosphatidylinositol 3-kinase C2 domain-containing subunit gamma (PIK3C2G, Homo sapiens, UniProt O75747)

For `C=CC(=O)N1Cc2nc(-c3cc(-c4cc(Cl)cnc4Cl)c(F)cc3F)n(-c3ccncn3)c2C1`, the inhibition was 4.4% (cell-free assay; 1 µM).
`Cc1nc2c(F)cc(-c3nc(Nc4ccc(CNC(=O)CCCCCCC(=O)NO)cc4)ncc3F)cc2n1C(C)C` has an inhibition of 61% (enzyme activity, inhibitor; 1 µM).
For `CNC(=O)C[C@H](Cc1ccc(C#N)cc1)NC(=O)c1cc(-c2ccc(CN[C@H](C)c3ccc(C)cc3)o2)ccc1Cl`, “activity vs control” read 95% (enzyme activity, inhibitor; 1 µM).
`CNC(=O)C1CCN(c2cc(C)c(F)cc2NC(=O)c2ccc(-c3cc(O)ccc3C)c(C)c2)CC1` gave a remaining binding of 100% (binding, competition with immobilised ligand; 1 µM).
With `C[C@H]1CN(C(=O)c2cn(-c3ccnc(N)n3)c3cc(C#CC4(O)CCCCC4)ccc23)CCN1` the inhibition was 6% (enzyme activity, inhibitor; 1 µM).
With `COc1cc(Nc2nc(C)cc(-c3cnn4nc(OC)ccc34)n2)cc(C(F)(F)F)c1` the remaining activity was 89% (inhibitor; 1 µM; reference: control).
`COc1c(Cl)cccc1Nc1c(-c2ccncc2C#C[C@@]2(C)CCCN2C(=O)/C=C/CN(C)C)[nH]c2c1C(=O)NCC2` has a remaining binding of 72% (binding, competition with immobilised ligand; 3 µM).
With `CC(=O)c1cnc(N)nc1N1CC[C@H]1c1nn2ccc(Cl)c2c(=O)n1-c1ccccc1` the remaining binding was 5.9% (KINOMEscan competition binding; 10 µM).
`COc1cc(Nc2nccc(-c3cnn4nc(OC)ccc34)n2)cc(C(F)(F)F)c1` has a remaining binding of 85% (binding, competition with immobilised ligand; 1 µM).
`CN1CC[C@@H](COc2cnc(C#N)cc2-c2ccn3nc(NC(=O)C4CC4)cc3c2)C1` gave an inhibition of 3% (enzyme activity, inhibitor; 1 µM).
`CN1CCN(Cc2ccc(-c3ccc(CO[C@H]4CCC[C@@H]4NC(=O)c4cc(-c5cnn(C)c5)cnc4N)cc3)cc2)CC1` gave an inhibition of 8% (enzyme activity, inhibitor; 0.1 µM).
For `CC(C)=CC1OC(C)(C)C2C=C3C(=O)C(Cl)=CC(O)C3C3C(O)C4OC4C(=O)C132` (centres unmarked), the remaining binding was 75% (cell-free assay, competition with immobilised ligand; 10 µM).
For `CNC1C[S+]2CC[S+]3CC[S+](C1)[Ru-4]321([N]=C=S)[n]2c3ccc(OC)cc3c3c4c(c5cc(F)c[n+]1c5c32)C(=O)NC4=O` (centres unmarked), the remaining binding was 79% (KinomeScan; 0.1 µM; reference: untreated).
For `Cc1ccc(-c2c(/C=C(\C#N)C(=O)NC(C)C)n(CCCO)c3ncnc(N)c23)cc1`, the remaining binding was 90% (cell-free assay, competition with immobilised ligand; 1 µM).
The remaining binding of `Nc1ncc2c(n1)-c1c([nH]c3ccc(C4=CCOCC4)cc13)CCC2` is reported as 51% (binding, competition with immobilised ligand; 1 µM).
The remaining binding of `CCN1CCN(Cc2ccc(C(=O)Nc3ccc(C)c(NCc4cnc5[nH]ccc5c4OC)c3)cc2C(F)(F)F)CC1` is reported as 89% (binding, competition with immobilised ligand; 1 µM).
`C=CC(=O)N1CCc2ccc(-n3c(=O)ccc4cnc5ccc(-c6cnn(C)c6)cc5c43)cc21` gave a remaining binding of 100% (KINOMEscan; 1 µM; reference: DMSO control).
For `Cc1cnc2nc1Nc1cccc(c1)COC/C=C/COCc1cc(ccc1OCCN1CCOCC1)N2`, the remaining binding was 74% (binding; 0.1 µM).
The remaining binding of `C=CC(=O)N1CCCC(n2c(=O)c3ncccc3n(Cc3ccc(Oc4ccccc4)cc3)c2=O)C1` (centres unmarked) is reported as 92% (cell-free assay, competition with immobilised ligand; 1 µM).
`O=C(Cc1ccc(OCc2ccccc2)cc1)NC1(C(=O)O)CCN(C(=O)c2ccc(-c3cccc(Cl)c3)cc2)CC1` — result for “activity vs control”: 110% (enzyme activity, inhibitor; 10 µM).

A few entries again:
The remaining binding of `CCN1CCN(Cc2ccc(C(=O)Nc3ccc(C)c(NCc4cnc5[nH]ccc5c4OC)c3)cc2C(F)(F)F)CC1` is reported as 89% (binding, competition with immobilised ligand; 1 µM).
`C=CC(=O)N1CCc2ccc(-n3c(=O)ccc4cnc5ccc(-c6cnn(C)c6)cc5c43)cc21` gave a remaining binding of 100% (KINOMEscan; 1 µM; reference: DMSO control).
For `Cc1cnc2nc1Nc1cccc(c1)COC/C=C/COCc1cc(ccc1OCCN1CCOCC1)N2`, the remaining binding was 74% (binding; 0.1 µM).
